Measurements gathered from unrelated publications.
Numbered parts are unrelated; each lists some results of a single study.
Chain of UniProt P19784 (whole entry, looked up): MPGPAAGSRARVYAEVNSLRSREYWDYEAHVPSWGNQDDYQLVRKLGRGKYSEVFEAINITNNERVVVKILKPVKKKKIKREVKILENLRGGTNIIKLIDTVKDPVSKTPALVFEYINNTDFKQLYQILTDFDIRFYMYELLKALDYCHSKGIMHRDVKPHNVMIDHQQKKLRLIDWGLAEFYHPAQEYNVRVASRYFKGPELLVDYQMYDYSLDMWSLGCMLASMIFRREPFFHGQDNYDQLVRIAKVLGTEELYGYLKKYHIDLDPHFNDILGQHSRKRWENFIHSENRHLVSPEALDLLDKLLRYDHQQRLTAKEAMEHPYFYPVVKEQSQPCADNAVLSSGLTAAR
Chain of UniProt Q9Y2I7 (whole entry, looked up): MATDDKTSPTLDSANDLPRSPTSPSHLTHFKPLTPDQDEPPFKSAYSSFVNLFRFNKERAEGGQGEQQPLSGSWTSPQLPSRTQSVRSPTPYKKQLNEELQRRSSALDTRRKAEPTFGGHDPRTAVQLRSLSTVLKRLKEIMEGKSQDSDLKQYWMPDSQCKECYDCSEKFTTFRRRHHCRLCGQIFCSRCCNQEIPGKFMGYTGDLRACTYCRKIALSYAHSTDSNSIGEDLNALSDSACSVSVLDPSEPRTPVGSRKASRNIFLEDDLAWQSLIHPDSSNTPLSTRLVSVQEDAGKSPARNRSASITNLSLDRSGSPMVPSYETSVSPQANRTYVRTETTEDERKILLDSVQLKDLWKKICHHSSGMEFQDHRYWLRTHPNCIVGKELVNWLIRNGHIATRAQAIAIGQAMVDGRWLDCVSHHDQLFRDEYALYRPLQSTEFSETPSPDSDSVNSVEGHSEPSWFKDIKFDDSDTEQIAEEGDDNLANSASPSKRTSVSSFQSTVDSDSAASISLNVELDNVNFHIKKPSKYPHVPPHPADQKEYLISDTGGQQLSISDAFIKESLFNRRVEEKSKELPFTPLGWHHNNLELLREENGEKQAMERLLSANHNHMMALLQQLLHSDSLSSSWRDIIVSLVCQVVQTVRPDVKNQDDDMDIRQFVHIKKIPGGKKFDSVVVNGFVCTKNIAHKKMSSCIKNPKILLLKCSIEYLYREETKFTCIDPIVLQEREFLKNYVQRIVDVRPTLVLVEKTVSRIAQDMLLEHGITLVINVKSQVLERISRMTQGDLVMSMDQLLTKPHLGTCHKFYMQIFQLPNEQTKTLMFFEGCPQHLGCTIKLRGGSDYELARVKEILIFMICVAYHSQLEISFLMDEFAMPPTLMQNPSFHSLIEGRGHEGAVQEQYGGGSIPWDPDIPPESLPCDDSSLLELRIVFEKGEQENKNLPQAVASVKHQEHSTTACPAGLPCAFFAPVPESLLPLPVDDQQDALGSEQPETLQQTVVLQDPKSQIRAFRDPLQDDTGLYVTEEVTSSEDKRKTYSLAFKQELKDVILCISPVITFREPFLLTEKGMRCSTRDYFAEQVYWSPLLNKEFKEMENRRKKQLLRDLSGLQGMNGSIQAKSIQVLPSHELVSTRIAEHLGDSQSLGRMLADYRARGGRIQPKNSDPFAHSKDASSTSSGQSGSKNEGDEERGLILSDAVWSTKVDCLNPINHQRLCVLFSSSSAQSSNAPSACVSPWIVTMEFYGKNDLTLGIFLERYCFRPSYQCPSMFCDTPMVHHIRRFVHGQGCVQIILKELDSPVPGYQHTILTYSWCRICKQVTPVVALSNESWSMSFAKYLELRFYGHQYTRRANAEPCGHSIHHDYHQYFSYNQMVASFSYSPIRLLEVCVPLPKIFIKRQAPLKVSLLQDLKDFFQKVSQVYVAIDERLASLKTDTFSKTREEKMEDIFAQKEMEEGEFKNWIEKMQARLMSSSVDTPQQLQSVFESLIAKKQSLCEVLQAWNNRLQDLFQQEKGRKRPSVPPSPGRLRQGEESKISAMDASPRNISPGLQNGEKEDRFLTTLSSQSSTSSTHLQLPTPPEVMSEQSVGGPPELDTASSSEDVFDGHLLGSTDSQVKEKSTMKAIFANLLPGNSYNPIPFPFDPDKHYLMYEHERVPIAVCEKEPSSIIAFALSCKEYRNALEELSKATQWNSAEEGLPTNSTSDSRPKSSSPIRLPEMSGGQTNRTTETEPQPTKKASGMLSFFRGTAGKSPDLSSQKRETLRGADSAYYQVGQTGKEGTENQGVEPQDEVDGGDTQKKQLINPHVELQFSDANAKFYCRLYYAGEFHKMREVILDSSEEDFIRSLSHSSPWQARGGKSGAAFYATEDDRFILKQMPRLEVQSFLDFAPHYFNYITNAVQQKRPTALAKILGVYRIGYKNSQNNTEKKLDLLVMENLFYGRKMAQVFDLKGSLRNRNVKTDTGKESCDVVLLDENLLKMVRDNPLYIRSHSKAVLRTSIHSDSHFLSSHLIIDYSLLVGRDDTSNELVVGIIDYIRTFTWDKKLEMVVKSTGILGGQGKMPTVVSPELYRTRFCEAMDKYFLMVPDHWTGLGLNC
Chain of UniProt P10721 (whole entry, unmodified, looked up): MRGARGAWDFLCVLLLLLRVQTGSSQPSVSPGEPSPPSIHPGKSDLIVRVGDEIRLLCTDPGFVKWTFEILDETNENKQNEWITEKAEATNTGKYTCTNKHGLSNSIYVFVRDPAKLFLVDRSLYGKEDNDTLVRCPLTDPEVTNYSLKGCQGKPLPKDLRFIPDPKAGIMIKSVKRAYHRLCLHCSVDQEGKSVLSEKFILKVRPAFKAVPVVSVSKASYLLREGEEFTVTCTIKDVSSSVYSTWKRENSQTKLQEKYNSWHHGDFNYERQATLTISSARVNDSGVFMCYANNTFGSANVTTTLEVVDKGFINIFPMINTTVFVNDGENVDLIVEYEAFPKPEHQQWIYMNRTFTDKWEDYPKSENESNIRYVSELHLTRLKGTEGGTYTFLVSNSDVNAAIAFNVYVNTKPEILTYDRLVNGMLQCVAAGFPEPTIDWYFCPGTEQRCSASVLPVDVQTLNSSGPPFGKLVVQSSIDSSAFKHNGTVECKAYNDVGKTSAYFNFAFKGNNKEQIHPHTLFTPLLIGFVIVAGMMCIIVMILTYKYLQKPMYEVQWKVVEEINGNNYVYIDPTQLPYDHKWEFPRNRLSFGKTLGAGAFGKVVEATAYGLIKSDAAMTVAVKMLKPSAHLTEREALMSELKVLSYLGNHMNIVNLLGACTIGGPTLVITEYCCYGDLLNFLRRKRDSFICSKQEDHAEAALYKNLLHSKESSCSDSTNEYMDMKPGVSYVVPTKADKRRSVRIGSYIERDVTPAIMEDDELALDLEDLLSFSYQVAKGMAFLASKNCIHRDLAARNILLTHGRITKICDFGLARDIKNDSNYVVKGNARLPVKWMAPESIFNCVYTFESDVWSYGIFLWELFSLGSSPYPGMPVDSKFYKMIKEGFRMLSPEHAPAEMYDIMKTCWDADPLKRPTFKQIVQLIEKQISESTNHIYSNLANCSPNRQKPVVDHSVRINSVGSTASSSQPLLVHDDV
Chain of UniProt Q12851 (whole entry, looked up): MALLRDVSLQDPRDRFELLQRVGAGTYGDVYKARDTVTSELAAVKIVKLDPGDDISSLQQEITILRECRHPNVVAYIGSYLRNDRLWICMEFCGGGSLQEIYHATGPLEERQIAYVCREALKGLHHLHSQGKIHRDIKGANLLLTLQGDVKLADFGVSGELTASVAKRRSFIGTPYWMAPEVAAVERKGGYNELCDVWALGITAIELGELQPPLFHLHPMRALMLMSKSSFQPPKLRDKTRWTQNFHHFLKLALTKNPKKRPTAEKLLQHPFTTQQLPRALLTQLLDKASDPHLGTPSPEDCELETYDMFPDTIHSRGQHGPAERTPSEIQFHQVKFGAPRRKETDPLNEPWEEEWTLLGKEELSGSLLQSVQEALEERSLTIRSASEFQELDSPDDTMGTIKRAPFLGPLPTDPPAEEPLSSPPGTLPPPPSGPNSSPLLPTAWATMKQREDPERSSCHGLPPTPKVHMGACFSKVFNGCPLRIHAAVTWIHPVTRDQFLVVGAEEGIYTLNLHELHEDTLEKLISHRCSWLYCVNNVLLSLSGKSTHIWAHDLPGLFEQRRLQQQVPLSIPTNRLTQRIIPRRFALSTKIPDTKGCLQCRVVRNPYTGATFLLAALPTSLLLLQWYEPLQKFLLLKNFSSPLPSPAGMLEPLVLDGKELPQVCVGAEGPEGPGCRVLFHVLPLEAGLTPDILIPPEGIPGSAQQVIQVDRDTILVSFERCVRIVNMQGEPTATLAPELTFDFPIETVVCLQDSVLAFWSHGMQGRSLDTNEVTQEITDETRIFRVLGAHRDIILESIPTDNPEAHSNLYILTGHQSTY
Chain of UniProt Q9NY57 (whole entry, looked up): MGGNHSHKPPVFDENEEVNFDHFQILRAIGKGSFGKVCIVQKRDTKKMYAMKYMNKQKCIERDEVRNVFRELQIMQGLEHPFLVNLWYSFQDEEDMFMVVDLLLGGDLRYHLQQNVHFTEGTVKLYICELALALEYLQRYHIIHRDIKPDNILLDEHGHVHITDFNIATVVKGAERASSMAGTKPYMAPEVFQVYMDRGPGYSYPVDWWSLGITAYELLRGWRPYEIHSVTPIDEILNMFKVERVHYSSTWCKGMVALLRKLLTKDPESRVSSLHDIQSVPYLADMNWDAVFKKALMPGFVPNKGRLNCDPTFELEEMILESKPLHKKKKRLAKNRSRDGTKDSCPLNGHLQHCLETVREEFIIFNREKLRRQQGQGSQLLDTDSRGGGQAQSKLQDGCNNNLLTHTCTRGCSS

Sample 1
Target: RNA binding protein fox-1 homolog 2, RRM domain, GST-SBP tag (RBFOX2, Homo sapiens, UniProt O43251-10, residues 100-194)
Technique: RNA Bind-n-Seq
Form: RNA
Medium: in vitro
Tested at: 365 nM
Notes: natural RNA segment, single round, ends assumed
Reference: no-protein control
Reading: higher = stronger binding
| Oligonucleotide | RBNS enrichment (R) |
| --- | --- |
| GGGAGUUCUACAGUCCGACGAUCGAAGUUGCCUCCCCUGGUGUUCCACCAUCCACAGUUUCUGUAACAUUUACCCAGUGGACAUGAGCGCUGCUGAAUUUCAUAUAAGGGUCUUCACAGAAAAUACAUGUUCCUGGAAUUCUCGGGUGCCAA | 0.377 |
| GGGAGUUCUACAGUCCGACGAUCUGCUGGUGAGUCUGACACUUGGUGAGUUUUCAGCCAGUUUGUUAAACUUUUAAUUAAGUUUUGUUUAUAAUAAAAAUAUAAAUGGAUUUGAAAGUUUCCAUUUUUUAAAGUGGAAUUCUCGGGUGCCAA | 1.05 |
| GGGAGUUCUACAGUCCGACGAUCUUUGCCCAGCUCAGCAUCAGCUAAACCACAGACCUGGAAGAGUCAGCCUAGGAGAUGCCACACAUGCACAUGUCUGUUGCUUCUGUUGGCCUGAACCUACAACUGCCAAAUGGAAUUCUCGGGUGCCAA | 6.79 |
| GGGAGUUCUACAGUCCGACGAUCCUUUAUAAGGUCAGUGUGCAUUUGUUCUAGUUAUAAUGCUUUUAAAUUGUACUUUUUCUUCCCAUGUGAGCAUUGUGGGAAGGAAUGGACACAGAGCAGCGUAGACAUUUUGGAAUUCUCGGGUGCCAA | 0.417 |
| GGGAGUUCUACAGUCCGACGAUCUUUCAAGGUCAUCUUAAAAAAGAUGUGCGUUGUAUAUUUUAACUACAUUCUCUACACUCUAACAUUAACAUAUCUAUUCAAAUUUGUCUAGUUGCCAAUUGUCUUCAGAGUGGAAUUCUCGGGUGCCAA | 0.451 |
| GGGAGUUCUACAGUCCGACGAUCCUGUCUCCUCAGUGAACCUCCUAGUUUCUUUAUAGACUUAACCUUCCCUUCAGUUAAAGGGUUUCUUUUUCAGAGGGCCUAGACUGUGCUGACCUUGUGUGACCAGAGAUUGGAAUUCUCGGGUGCCAA | 0.39 |
| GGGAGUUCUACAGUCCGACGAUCGUUCCAAGUUGGUUGCUGUGACAACCUCCAGGAAGAGCCACUUGUUACCCUCUAUUCUUUCUAGUGCUUUCAGUCAGUGGCAACACAUAGGCCCCUUGGACCGUGGGGAUUGGAAUUCUCGGGUGCCAA | 0.411 |
| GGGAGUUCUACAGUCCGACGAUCCUUCCUGUGAACUCACUCUGUGCCCCUGUUGUCCACAGGAUUCCAGUCUCCUGUUCUCAGUCAGGCUUCGCUUGAGGUCAGUGCUAUAAAAAUUGAAAGCUUCCAGAGAGUGGAAUUCUCGGGUGCCAA | 0.618 |

Sample 2
Structure (SMILES): CCCCN(CCCC)C(=O)CN1C[C@@H](c2cc(OC)c3c(c2)OCO3)[C@H](C(=O)O)[C@H]1CC(C)(C)CCC
Read-out: cell-free assay
Technique: competition with immobilised ligand
Tested at: 1 µM
| target | remaining binding [%] |
| --- | --- |
| MAP3K4 (Homo sapiens, UniProt Q9Y6R4) | 85.5 |
| KIT (Homo sapiens, UniProt P10721, V559D) | 100 |
| STK32B (Homo sapiens, UniProt Q9NY57) | 98.4 |
| PIKFYVE (Homo sapiens, UniProt Q9Y2I7) | 81.4 |
| Tyrosine-protein kinase JAK1, JH1 (JAK1, Homo sapiens, UniProt P23458) | 79 |
| MAP4K2 (Homo sapiens, UniProt Q12851) | 100 |
| CSNK2A2 (Homo sapiens, UniProt P19784) | 77.1 |

Sample 3
Target: Mitogen-activated protein kinase 8 (MAPK8, Homo sapiens, UniProt P45983)
Chain of UniProt P45983 (whole entry, looked up): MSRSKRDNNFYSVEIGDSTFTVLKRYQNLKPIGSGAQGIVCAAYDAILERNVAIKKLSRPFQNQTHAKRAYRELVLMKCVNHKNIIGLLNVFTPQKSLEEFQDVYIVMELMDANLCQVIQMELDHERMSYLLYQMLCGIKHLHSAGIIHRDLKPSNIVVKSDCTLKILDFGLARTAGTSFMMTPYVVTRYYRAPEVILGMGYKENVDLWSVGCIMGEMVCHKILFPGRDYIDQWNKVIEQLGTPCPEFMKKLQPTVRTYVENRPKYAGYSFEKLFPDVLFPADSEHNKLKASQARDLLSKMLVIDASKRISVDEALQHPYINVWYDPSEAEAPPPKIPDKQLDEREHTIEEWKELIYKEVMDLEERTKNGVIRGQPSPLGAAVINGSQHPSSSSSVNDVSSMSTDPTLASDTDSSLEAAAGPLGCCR
Read-out: enzyme activity
Action: inhibitor
Tested at: 0.5 µM
Reference: control
| Compound | remaining activity [%] |
| --- | --- |
| CN(C)c1ccc(C=C2C(=O)Nc3ccccc32)cc1 | 103 |
| COc1cc2nccc(Oc3ccc(NC(=S)NC(=O)c4ccccc4C)cc3)c2cc1OC | 81.3 |
| Nc1ncnc2n[nH]c(Nc3ccc(F)cc3)c12 | 111 |
| Cn1sc(=O)n(Cc2ccccc2)c1=O | 85.5 |
| O=C(O)c1ccc2c3c1cccc3c(=O)n1c3ccccc3nc21 | 98 |
| Nc1ccc2ncnc(NCCc3ccc(Oc4ccccc4)cc3)c2c1 | 104 |
| O=c1c2ccccc2[nH]c(=S)n1CCN1CCC(=C(c2ccc(F)cc2)c2ccc(F)cc2)CC1 | 98.9 |
| Cc1cccc(-c2[nH]c(C(C)(C)C)nc2-c2ccc3c(c2)OCO3)n1 | 95.7 |
| CCOC(=O)c1c(C)[nH]c(/C=C2\C(=O)Nc3ccccc32)c1C | 106 |
| Nc1[nH]nc2nc3ccccc3nc12 | 89.6 |
| O=C1NC(=O)C(c2cn(CCCn3ccnc3)c3ccccc23)=C1Nc1ccccc1 | 99.6 |
| COc1ccc(OC)c2c(=S)c3ccccc3[nH]c12 | 96.8 |
| Cc1nc(-c2ccccc2)c(-c2ccncc2)o1 | 99.5 |
| O=C(CCCc1ccc(-c2ccccc2F)cc1)Nc1ccc(O)cc1 | 103 |

Sample 4
Target: TAR DNA-binding protein 43, full length, His tag (TARDBP, Homo sapiens, UniProt Q13148, residues 1-414)
Technique: RNA Bind-n-Seq
Form: RNA
Medium: in vitro
Tested at: 20 nM
Notes: 6-mer, flanks averaged, single round
With: 150 mM LiCl
Reference: input library
Reading: higher = stronger binding
| Oligonucleotide | 6-mer enrichment (R) |
| --- | --- |
| GAUCCU | 0.853 |
| CACCUA | 0.919 |
| CAAUGU | 0.972 |
| CCCCGU | 1.13 |
| CGUCUA | 0.865 |
| CUAUUC | 0.904 |
| GCUACG | 0.867 |
| AUAUAA | 0.988 |

Repeated from above (sample 1):
| Oligonucleotide | RBNS enrichment (R) |
| --- | --- |
| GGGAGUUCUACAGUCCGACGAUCCUGUCUCCUCAGUGAACCUCCUAGUUUCUUUAUAGACUUAACCUUCCCUUCAGUUAAAGGGUUUCUUUUUCAGAGGGCCUAGACUGUGCUGACCUUGUGUGACCAGAGAUUGGAAUUCUCGGGUGCCAA | 0.39 |
| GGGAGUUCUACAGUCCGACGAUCUGCUGGUGAGUCUGACACUUGGUGAGUUUUCAGCCAGUUUGUUAAACUUUUAAUUAAGUUUUGUUUAUAAUAAAAAUAUAAAUGGAUUUGAAAGUUUCCAUUUUUUAAAGUGGAAUUCUCGGGUGCCAA | 1.05 |
| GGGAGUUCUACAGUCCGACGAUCUUUCAAGGUCAUCUUAAAAAAGAUGUGCGUUGUAUAUUUUAACUACAUUCUCUACACUCUAACAUUAACAUAUCUAUUCAAAUUUGUCUAGUUGCCAAUUGUCUUCAGAGUGGAAUUCUCGGGUGCCAA | 0.451 |
| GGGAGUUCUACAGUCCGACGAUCCUUUAUAAGGUCAGUGUGCAUUUGUUCUAGUUAUAAUGCUUUUAAAUUGUACUUUUUCUUCCCAUGUGAGCAUUGUGGGAAGGAAUGGACACAGAGCAGCGUAGACAUUUUGGAAUUCUCGGGUGCCAA | 0.417 |
